Measured values from different studies.
Each line is one published result; not all experiments were run side by side. Values joined by “and” are separate records of one study, mostly repeats; a detail may differ. ± marks the error that the study gave.
glpG: Rhomboid protease GlpG (glpG, Escherichia coli, UniProt P09391)
UniProt P09391, sequence (whole entry, looked up): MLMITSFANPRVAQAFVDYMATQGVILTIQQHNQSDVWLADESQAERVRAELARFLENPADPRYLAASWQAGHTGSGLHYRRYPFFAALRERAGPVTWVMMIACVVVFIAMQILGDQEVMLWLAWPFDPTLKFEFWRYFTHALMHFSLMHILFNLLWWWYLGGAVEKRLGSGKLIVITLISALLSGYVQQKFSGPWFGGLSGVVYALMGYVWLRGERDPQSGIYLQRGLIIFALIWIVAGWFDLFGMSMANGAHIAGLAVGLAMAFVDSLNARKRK
DNA dC->dU-editing enzyme APOBEC-3B C-terminal domain: DNA dC->dU-editing enzyme APOBEC-3B, C-terminal domain (Homo sapiens, UniProt Q9UH17)
UniProt Q9UH17, sequence (whole entry, looked up): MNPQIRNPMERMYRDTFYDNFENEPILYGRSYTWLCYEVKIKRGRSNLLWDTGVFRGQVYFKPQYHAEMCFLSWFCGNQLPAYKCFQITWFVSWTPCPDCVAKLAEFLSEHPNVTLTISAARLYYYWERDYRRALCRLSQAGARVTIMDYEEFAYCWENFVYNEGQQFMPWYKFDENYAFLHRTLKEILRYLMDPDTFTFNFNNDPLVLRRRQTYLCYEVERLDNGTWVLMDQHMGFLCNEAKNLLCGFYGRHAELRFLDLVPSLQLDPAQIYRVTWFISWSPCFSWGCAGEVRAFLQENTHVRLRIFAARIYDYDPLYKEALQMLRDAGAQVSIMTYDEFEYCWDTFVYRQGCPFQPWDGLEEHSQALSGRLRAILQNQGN
NNMT: Nicotinamide N-methyltransferase (NNMT, Homo sapiens, UniProt P40261)
UniProt P40261, sequence (whole entry, looked up): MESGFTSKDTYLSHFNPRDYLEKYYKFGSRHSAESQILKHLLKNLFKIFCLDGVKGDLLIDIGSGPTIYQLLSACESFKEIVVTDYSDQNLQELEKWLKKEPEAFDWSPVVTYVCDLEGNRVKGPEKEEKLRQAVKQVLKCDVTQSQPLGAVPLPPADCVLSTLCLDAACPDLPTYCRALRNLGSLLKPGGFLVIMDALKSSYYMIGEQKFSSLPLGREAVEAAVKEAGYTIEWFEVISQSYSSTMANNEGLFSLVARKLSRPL
NTSR1: Neurotensin receptor type 1 (NTSR1, Homo sapiens, UniProt P30989)
UniProt P30989, sequence (whole entry, looked up): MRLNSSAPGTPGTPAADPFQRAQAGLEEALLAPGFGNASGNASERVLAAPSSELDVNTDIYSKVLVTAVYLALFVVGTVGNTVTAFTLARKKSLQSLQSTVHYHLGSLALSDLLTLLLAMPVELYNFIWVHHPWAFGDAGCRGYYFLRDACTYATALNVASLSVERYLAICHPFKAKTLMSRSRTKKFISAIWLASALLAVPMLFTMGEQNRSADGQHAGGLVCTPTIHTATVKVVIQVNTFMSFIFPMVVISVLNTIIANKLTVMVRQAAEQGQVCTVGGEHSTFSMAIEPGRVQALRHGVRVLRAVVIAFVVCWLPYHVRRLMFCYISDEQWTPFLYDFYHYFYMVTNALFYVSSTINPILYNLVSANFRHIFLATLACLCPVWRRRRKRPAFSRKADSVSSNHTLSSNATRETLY
ppa: Inorganic pyrophosphatase (ppa, Escherichia coli, UniProt P0A7A9)
UniProt P0A7A9, sequence (whole entry, looked up): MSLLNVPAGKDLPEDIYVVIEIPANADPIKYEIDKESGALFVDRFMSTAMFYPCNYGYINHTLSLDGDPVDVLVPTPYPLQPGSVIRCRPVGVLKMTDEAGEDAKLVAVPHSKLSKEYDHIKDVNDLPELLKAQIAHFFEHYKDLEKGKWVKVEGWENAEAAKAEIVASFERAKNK
ADRB2: Beta-2 adrenergic receptor (ADRB2, Homo sapiens, UniProt P07550)
UniProt P07550, sequence (whole entry, looked up): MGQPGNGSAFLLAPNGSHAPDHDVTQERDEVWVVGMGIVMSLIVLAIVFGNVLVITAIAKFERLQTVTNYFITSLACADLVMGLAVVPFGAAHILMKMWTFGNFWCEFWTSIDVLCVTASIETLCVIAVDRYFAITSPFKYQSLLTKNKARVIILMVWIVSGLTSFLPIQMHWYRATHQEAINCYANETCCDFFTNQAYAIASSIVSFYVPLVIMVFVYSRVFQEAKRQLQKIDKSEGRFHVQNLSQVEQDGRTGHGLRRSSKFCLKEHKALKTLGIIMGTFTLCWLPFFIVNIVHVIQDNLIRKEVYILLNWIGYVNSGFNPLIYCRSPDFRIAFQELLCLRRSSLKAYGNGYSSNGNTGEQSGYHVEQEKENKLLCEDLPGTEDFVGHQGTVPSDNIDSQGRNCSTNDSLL
SLC7A5: Large neutral amino acids transporter small subunit 1 (SLC7A5, Homo sapiens, UniProt Q01650)
UniProt Q01650, sequence (whole entry, looked up): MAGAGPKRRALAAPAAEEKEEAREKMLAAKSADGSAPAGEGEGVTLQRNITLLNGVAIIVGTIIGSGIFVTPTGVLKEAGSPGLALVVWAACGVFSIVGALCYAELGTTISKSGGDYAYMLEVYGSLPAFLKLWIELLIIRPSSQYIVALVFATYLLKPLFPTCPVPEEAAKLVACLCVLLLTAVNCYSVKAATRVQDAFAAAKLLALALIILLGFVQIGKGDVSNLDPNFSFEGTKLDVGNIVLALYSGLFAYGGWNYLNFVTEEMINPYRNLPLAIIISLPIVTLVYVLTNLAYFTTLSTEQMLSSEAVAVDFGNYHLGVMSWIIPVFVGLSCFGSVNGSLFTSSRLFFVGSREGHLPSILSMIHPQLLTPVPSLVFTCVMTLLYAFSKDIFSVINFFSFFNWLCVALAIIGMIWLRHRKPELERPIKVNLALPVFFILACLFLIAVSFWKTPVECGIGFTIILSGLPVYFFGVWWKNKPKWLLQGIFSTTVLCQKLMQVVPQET
PIK3CD: Phosphatidylinositol 4,5-bisphosphate 3-kinase catalytic subunit delta isoform (PIK3CD, Homo sapiens, UniProt O00329)
UniProt O00329, sequence (whole entry, looked up): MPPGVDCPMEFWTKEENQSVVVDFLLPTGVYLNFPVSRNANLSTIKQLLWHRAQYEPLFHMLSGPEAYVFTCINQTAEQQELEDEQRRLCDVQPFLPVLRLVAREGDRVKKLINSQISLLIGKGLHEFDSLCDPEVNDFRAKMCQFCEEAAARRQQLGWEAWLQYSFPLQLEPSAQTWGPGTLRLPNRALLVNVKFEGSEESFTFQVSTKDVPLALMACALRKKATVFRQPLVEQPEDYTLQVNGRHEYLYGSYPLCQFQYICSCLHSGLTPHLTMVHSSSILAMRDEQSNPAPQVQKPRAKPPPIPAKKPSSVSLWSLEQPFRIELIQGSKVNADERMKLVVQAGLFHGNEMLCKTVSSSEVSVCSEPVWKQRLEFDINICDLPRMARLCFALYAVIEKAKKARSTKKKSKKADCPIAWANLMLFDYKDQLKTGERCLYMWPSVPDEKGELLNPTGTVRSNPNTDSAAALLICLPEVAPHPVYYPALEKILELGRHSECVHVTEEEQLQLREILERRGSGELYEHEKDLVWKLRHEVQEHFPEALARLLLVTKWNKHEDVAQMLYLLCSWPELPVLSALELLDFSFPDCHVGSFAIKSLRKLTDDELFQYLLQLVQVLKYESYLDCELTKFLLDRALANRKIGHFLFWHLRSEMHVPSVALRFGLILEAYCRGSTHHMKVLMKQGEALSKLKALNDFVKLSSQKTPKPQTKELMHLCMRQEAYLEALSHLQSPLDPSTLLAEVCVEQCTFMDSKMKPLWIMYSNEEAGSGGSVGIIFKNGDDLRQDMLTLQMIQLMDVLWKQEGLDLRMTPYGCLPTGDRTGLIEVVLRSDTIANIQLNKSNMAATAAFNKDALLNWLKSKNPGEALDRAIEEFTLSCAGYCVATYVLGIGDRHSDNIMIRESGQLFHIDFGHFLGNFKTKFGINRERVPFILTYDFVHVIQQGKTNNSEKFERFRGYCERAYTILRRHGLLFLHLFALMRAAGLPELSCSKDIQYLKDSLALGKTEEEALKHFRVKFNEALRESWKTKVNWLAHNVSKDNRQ
DNA dC->dU-editing enzyme APOBEC-3B: DNA dC->dU-editing enzyme APOBEC-3B (Homo sapiens, UniProt Q9UH17)
PDE4D: 3',5'-cyclic-AMP phosphodiesterase 4D (PDE4D, Homo sapiens, UniProt Q08499)
CHRM5: Muscarinic acetylcholine receptor M5 (CHRM5, Homo sapiens, UniProt P08912)
Uncharacterized protein: Uncharacterized protein (Trypanosoma brucei brucei, UniProt Q386Q8)
Gria1: Glutamate receptor 1 (Gria1, Rattus norvegicus, UniProt P19490)
UniProt P19490, sequence (whole entry, looked up): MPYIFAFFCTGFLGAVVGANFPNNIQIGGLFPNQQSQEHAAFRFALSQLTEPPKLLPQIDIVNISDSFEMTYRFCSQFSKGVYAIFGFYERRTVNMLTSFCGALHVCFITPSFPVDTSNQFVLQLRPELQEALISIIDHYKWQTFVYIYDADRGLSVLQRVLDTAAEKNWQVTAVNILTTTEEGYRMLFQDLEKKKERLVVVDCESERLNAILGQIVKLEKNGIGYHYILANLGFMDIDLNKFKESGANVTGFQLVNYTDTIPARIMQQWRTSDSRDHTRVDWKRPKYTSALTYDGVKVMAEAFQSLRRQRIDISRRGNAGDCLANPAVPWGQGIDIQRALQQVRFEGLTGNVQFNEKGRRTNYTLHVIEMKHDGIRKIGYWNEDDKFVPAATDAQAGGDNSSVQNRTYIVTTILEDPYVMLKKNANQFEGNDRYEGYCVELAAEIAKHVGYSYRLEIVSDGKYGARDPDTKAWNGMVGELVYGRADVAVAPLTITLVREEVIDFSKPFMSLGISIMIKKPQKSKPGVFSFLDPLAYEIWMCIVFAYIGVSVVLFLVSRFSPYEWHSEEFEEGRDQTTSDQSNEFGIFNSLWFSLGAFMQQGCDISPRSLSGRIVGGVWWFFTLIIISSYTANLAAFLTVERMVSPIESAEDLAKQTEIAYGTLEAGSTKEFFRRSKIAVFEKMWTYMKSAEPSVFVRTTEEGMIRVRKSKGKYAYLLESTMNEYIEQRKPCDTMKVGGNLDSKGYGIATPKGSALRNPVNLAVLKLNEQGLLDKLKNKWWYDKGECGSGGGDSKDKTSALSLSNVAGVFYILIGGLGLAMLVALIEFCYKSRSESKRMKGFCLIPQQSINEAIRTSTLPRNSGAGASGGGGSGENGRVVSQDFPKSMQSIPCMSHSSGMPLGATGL
UniProt P22310, sequence (whole entry, looked up): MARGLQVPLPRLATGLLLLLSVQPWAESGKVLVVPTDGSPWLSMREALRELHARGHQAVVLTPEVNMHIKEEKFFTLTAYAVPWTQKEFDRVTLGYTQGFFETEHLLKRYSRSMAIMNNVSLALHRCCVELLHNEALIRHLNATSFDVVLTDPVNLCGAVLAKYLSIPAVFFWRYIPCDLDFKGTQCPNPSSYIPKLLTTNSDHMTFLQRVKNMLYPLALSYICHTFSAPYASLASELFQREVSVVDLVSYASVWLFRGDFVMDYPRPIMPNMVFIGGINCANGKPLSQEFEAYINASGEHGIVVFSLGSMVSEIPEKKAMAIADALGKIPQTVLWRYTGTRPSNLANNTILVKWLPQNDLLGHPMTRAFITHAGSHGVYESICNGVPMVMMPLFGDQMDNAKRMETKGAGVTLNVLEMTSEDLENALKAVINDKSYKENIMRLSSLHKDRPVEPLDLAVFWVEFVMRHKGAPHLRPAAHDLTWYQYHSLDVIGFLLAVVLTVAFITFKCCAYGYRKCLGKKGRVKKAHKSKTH

| SMILES | target | assay | system | conditions | IC50 |
| --- | --- | --- | --- | --- | --- |
| O=C1CC(c2ccccc2)N1S(=O)(=O)c1cccc(Cl)c1 (centres unmarked) | glpG | enzyme activity, inhibitor |  |  | 2.7 µM |
| CCC1(O)CCCN(C(=O)c2ccc(-c3ccccc3C(F)(F)F)cc2)C1 (centres unmarked) | DNA dC->dU-editing enzyme APOBEC-3B C-terminal domain | ssDNA binding, inhibitor, fluorescence polarization displacement |  | added: fluorophore-labelled ssDNA | 533 µM |
| CNCc1ccc2c(c1)N(C(=O)OCC(F)(F)F)[C@H](CNC(=N)N)[C@H]2NC(=O)C(=O)Nc1ccc(Cl)c(F)c1 | env (Human immunodeficiency virus 1, UniProt O40222) | HIV-1 infection | Cf2Th-CD4/CCR5 cells | 48 h | 0.14 µM |
| Cc1ccc(C(N)=O)cn1 | NNMT | enzyme activity in cells, inhibitor |  |  | 7.94 µM |
| COc1ccccc1C1CCN(c2nc(C3(F)CCC3)nc3c(Cl)cc(N(C)CCO)cc23)CC1 | NTSR1 | G protein activation, antagonist |  |  | 0.396 µM |
| Cc1cc(Br)c2c(c1)C(O)(CC(=O)c1ccc(F)cc1)C(=O)N2 (centres unmarked) | ppa | enzyme activity, inhibitor |  |  | > 100 µM |
| Clc1cccc(Nc2nc(NC3CCCCC3)c3ccccc3n2)c1 | ADRB2 | cAMP production, antagonist, GloSensor |  | added: isoproterenol 1 µM | > 50 µM |
| N[C@@H](Cc1c[nH]c2ccc(OCc3cccc(I)c3)cc12)C(=O)O | SLC7A5 | transporter uptake, inhibitor, radiometric |  |  | 15.8 µM |
| COc1ccc(C(N)=O)cn1 | NNMT | enzyme activity in cells, inhibitor |  |  | 1 µM |
| O=C(CCc1ccccc1)N1C(=O)C2(NC(c3ccc(F)cc3)C3(C(=O)Nc4ccccc43)N2Cc2ccc(F)cc2)c2ccccc21 (centres unmarked) | PIK3CD | enzyme activity, inhibitor, ADP detection |  |  | 0.0797 µM |
| CCn1nc(Cl)c2c1-c1cnc(N)c(c1)O[C@H](C)c1cc(F)ccc1-c1nn(C)cc1C2 | Leukocyte tyrosine kinase receptor (LTK, Homo sapiens, UniProt P29376) | enzyme activity, inhibitor, radiometric |  |  | 0.009 µM |
| NC(=O)c1ccc2nc(CN3CCCC3c3ccco3)cc(O)c2c1 (centres unmarked) | DNA dC->dU-editing enzyme APOBEC-3B | enzyme activity, inhibitor, HPLC |  |  | 178 µM |
| Fc1ccc2nc(Nc3ccc(F)c(F)c3)nc(NC3CCCCC3)c2c1 | ADRB2 | cAMP production, antagonist, GloSensor |  | added: isoproterenol 1 µM | 16 ± 2 µM |
| CNc1cc(Cl)c(C(N)=O)cn1 | NNMT | enzyme activity in cells, inhibitor |  |  | 3.16 µM |
| Cc1nn(-c2cccc(N)c2)c(=O)c2cnc(Nc3ccc(N4CCNCC4)cc3)nc12 | Proto-oncogene tyrosine-protein kinase Src (SRC, Homo sapiens, UniProt P12931) | enzyme activity, inhibitor |  |  | 1.24 µM |
| CN(C)c1nc(NCc2ccccc2)c(/N=N/c2ccc(Cl)cc2)c(N(C)C)n1 | Chitinase (OfChi-h, Ostrinia furnacalis, UniProt Q4AE59) | enzyme activity, inhibitor, fluorescence |  |  | 0.1 µM |
| O=C(NC1CCC1)c1ccc2nc(-c3ccccc3)cn2c1 | Protein AF-9, YEATS domain (Homo sapiens, UniProt P42568) | YEATS domain binding, inhibitor, HTRF |  |  | 0.41 µM |
| C[C@@H](Nc1nc2c(cnn2C(C)(C)C)c(=O)n1Cc1cccc(F)c1)c1ccc(Cl)cc1 | PDE4D | enzyme activity, inhibitor |  |  | 0.773 µM |
| Cc1nc(N(C)c2ccc3c(c2)/C(=C/c2ccccc2)C(=O)N3C)c2ccccc2n1 | PIK3CD | enzyme activity, inhibitor, ADP detection |  |  | 0.547 µM |
| CCOc1ccc(-c2nnc3n2N=C(c2cc(OC)ccc2OC)CS3)cc1 | ppa | enzyme activity, inhibitor |  |  | 449 µM |
| C[C@@H](O)[C@H](NC(=O)[C@@H]1CSSC[C@H](NC(=O)[C@@H](Cc2ccccc2)NC(=O)CN2CCN(CC(=O)O)CCN(CC(=O)O)CCN(CC(=O)O)CC2)C(=O)N[C@@H](Cc2ccc(O)cc2)C(=O)N[C@H](Cc2c[nH]c3ccccc23)C(=O)N[C@@H](CCCCN)C(=O)N[C@@H]([C@@H](C)O)C(=O)N1)C(=O)O | Somatostatin receptor type 2 (Rattus norvegicus, UniProt P30680) | ligand displacement |  |  | 0.00346 µM |
| O=S1(=O)O[C@@H]2[C@H](CO)[C@@H](O)[C@H](O)[C@@H](O)[C@@H]2O1 | Oligosaccharide 4-alpha-D-glucosyltransferase (agd31B, Cellvibrio japonicus, UniProt B3PEE6) | enzyme activity, inhibitor |  | 30 min preincubation, pH 6.5, 25 °C | > 100 µM |
| CCC(NC(=O)c1cccc(-c2ccc(C)nc2N)c1)c1ccnn1C (centres unmarked) | DNA dC->dU-editing enzyme APOBEC-3B | enzyme activity, inhibitor, HPLC |  |  | 734 µM |
| Cc1ccc2c(c1C#Cc1ccc(O)cc1)C(c1ccc(O)cc1)(c1ccc(O)cc1)c1cc(O)ccc1-2 | PDE4D | enzyme activity, inhibitor |  |  | 0.144 µM |
| COc1cc2nc(CC3CC3)nc(N3CCN(c4ccccc4OC)CC3)c2cc1OC | NTSR1 | G protein activation, antagonist, BRET |  |  | > 30 µM |
| O=C1CC(c2ccccc2)N1S(=O)(=O)C1CCCC1 (centres unmarked) | glpG | enzyme activity, inhibitor |  |  | 25 µM |
| c1ccc(C2=Nn3c(nnc3C3CCCCC3)SC2)cc1 | ppa | enzyme activity, inhibitor |  |  | > 100 µM |

| SMILES | target | assay | system | conditions | IC50 |
| --- | --- | --- | --- | --- | --- |
| O=C(CCc1ccco1)N1C(=O)C2(NC(c3ccc(F)cc3)C3(C(=O)Nc4ccccc43)N2Cc2ccc(F)cc2)c2ccccc21 (centres unmarked) | PIK3CD | enzyme activity, inhibitor, ADP detection |  |  | 0.348 µM |
| Fc1ccc(Nc2nc(NC3CCCCC3)c3cc(Cl)ccc3n2)cc1F | ADRB2 | cAMP production, antagonist, GloSensor |  | added: isoproterenol 1 µM | > 50 µM |
| Cc1ccc2c(c1C)NC(=O)C2(O)CC(=O)c1ccc2c(c1)OCO2 (centres unmarked) | ppa | enzyme activity, inhibitor |  |  | > 100 µM |
| OCC1CCCN(CCNc2cc(-c3ccccc3)nc3ccnn23)C1 (centres unmarked) | DNA dC->dU-editing enzyme APOBEC-3B C-terminal domain | deaminase activity, inhibitor, UDG-coupled deamination |  |  | 97.6 ± 4.1 µM |
| Fc1ccc(Nc2nc(NC3CCCCC3)c3ccccc3n2)cc1Cl | ADRB2 | β-arrestin recruitment, antagonist |  |  | 3 µM |
| O=C(CCNC(=O)CNC(=O)CC(c1ccccc1)(c1ccccc1)c1ccccc1)NC[C@@H]1CCCN(C[C@H]2C[C@H](F)C2)C1 | CHRM5 | ligand displacement, radioligand |  | cell membranes | > 30 µM |
| Cc1cc(NC2CCN(C)CC2)ccc1-c1cc2c(N3CCC[C@H](C(=O)NCc4ccc(OC(F)(F)F)cc4)C3)ncnc2[nH]1 | Serine/threonine-protein kinase 4 (STK4, Homo sapiens, UniProt Q13043) | enzyme activity, inhibitor, mobility shift |  |  | 6.43 µM |
| COc1ccccc1C1CCN(c2nc(C3CC3)nc3c(C)cc(N(C)CCO)cc23)CC1 | NTSR1 | G protein activation, antagonist, BRET |  |  | 6.49 µM |
| COc1cccc(OC)c1-c1cc(C(=O)NC2(C(=O)O)C3CC4CC(C3)CC2C4)nn1-c1ccc(C(=O)NCCNC(=O)[C@H](CCCCNC(=O)[C@H](CC(C)C)NC(=O)C2OC2C(=O)O)NC(=O)CN2CCN(CC(=O)[O-])CCN(CC(=O)[O-])CCN(CC(=O)[O-])CC2)cc1C(C)C.[Lu+3] (mixture of isomers) | NTSR1 | ligand displacement, radioligand |  |  | 0.0093 µM |
| COc1ccc(OC)c(C2=Nn3c(nnc3-c3ccc(C)cc3)SC2)c1 | Uncharacterized protein | inhibitor, coupled colorimetric | Trypanosoma brucei |  | 252 µM |
| CCOc1ccc2[nH]c(-c3ccccn3)nc2c1 | Core-binding factor subunit beta, with RUNX1 Runt domain (Homo sapiens, UniProt Q13951) | Runt domain binding, inhibitor, FRET |  |  | ≥ 34 µM |
| O=C(Nc1ccc2[nH]ncc2c1)c1c[nH]cc1-c1ccccc1 | Voltage-dependent L-type calcium channel subunit alpha-1C (CACNA1C, Homo sapiens, UniProt Q13936) | calcium influx, inhibitor, Fluo-4 fluorescence | HEK293 expressing Cav1.2 | 30 min, pH 7.2 | 30.7 µM |
| N[C@@H](Cc1c[nH]c2ccc(OCc3ccccc3)cc12)C(=O)O | SLC7A5 | transporter uptake, inhibitor, radiometric |  |  | 18.8 µM |
| COc1ccccc1C1CCN(c2nc(C3(F)CCCC3)nc3ccc(N(C)CCO)cc23)CC1 | NTSR1 | G protein activation, antagonist, BRET |  |  | 5.68 µM |
| COc1ccc(-c2coc3cc(O)cc(O)c3c2=O)cc1 | Cytochrome P450 2C9 (CYP2C9, Homo sapiens, UniProt P11712) | enzyme activity, inhibitor | human, liver microsomes | 15 min | 17.3 µM |
| COC(=O)Cc1cc2c(cc1C(=O)c1cccc(I)c1)OCO2 | Gria1 | glutamate-evoked current, inhibitor, whole-cell patch clamp | HEK293T, homomeric receptor |  | 5.89 µM |
| CC(=O)OC1CCC2(C)C(CCC3(C)C2CC=C2C4C(C)C(C)CCC4(C(=O)O)CCC23C)C1(C)C (centres unmarked) | UDP-glucuronosyltransferase 1A4 (UGT1A4, Homo sapiens, UniProt P22310) | enzyme activity, inhibitor | human, liver microsomes |  | 1.36 µM and 1.22 µM |
| Clc1ccc(C2=Nn3c(nnc3C3CCCCC3)SC2)cc1 | Uncharacterized protein | inhibitor, coupled colorimetric | Trypanosoma brucei |  | > 100 µM |
| O=C(O)Cc1cc2c(cc1C(=O)c1cccc(Br)c1)OCO2 | Gria1 | glutamate-evoked current, inhibitor, whole-cell patch clamp | HEK293T, homomeric receptor |  | 4.57 µM |
| c1ccc2c(NC3CCCCC3)nc(NC3CCCCC3)nc2c1 | ADRB2 | cAMP production, antagonist, GloSensor |  | added: isoproterenol 1 µM | > 50 µM |
| O=C(CSc1nnc(-c2ccco2)c(-c2ccco2)n1)c1ccc(Br)cc1 | Uncharacterized protein | enzyme activity, inhibitor, coupled colorimetric |  | added: E. coli pyrophosphatase coupling | 54.3 µM |
| O=C(O)Cc1cc2c(cc1C(=O)c1ccccc1I)OCO2 | Gria1 | glutamate-evoked current, inhibitor, whole-cell patch clamp | HEK293T, homomeric receptor |  | 4.79 µM |
| COc1ccc2c(c1OC)C(=O)N(c1ccc(OC(F)(F)F)cc1)C2 | Uncharacterized protein | inhibitor, coupled colorimetric | Trypanosoma brucei |  | > 100 µM |
| CC(C)c1ccc(/C=C/C(=O)c2ccc(Br)s2)cc1 | Amine oxidase [flavin-containing] B (MAOB, Homo sapiens, UniProt P27338) | enzyme activity, inhibitor |  |  | 0.074 µM |
| O=C(CCNC(=O)CNC(=O)CC(c1ccccc1)(c1ccccc1)c1ccccc1)NC[C@H]1CCCN(C(=O)c2ccc(F)cc2)C1 | CHRM5 | ligand displacement, radioligand |  | cell membranes | > 30 µM |
| N=C(N)Nc1cccc(NC(P(=O)(O)O)P(=O)(O)O)c1 | polyphosphate kinase 2 (Cytophaga hutchinsonii, UniProt A0A6N4SMB5) | enzyme activity, inhibitor, HPLC |  | 30 min, 37 °C, added: 0.04 mM ADP and 0.3 mM polyP | 58 ± 0.48 µM |

For quick reference, copied from above:
| SMILES | target | assay | system | conditions | IC50 |
| --- | --- | --- | --- | --- | --- |
| O=C(O)Cc1cc2c(cc1C(=O)c1ccccc1I)OCO2 | Gria1 | glutamate-evoked current, inhibitor, whole-cell patch clamp | HEK293T, homomeric receptor |  | 4.79 µM |
| COc1ccc2c(c1OC)C(=O)N(c1ccc(OC(F)(F)F)cc1)C2 | Uncharacterized protein | inhibitor, coupled colorimetric | Trypanosoma brucei |  | > 100 µM |
| CC(C)c1ccc(/C=C/C(=O)c2ccc(Br)s2)cc1 | Amine oxidase [flavin-containing] B (MAOB, Homo sapiens, UniProt P27338) | enzyme activity, inhibitor |  |  | 0.074 µM |
| O=C(CCNC(=O)CNC(=O)CC(c1ccccc1)(c1ccccc1)c1ccccc1)NC[C@H]1CCCN(C(=O)c2ccc(F)cc2)C1 | CHRM5 | ligand displacement, radioligand |  | cell membranes | > 30 µM |
| N=C(N)Nc1cccc(NC(P(=O)(O)O)P(=O)(O)O)c1 | polyphosphate kinase 2 (Cytophaga hutchinsonii, UniProt A0A6N4SMB5) | enzyme activity, inhibitor, HPLC |  | 30 min, 37 °C, added: 0.04 mM ADP and 0.3 mM polyP | 58 ± 0.48 µM |
